# Experimental data collected from several papers.
# Each numbered part is a random draw from the data of one study; scales do not carry over between parts. Substitutions count along the parent as printed.
# UniProt P53355, sequence (whole entry, looked up): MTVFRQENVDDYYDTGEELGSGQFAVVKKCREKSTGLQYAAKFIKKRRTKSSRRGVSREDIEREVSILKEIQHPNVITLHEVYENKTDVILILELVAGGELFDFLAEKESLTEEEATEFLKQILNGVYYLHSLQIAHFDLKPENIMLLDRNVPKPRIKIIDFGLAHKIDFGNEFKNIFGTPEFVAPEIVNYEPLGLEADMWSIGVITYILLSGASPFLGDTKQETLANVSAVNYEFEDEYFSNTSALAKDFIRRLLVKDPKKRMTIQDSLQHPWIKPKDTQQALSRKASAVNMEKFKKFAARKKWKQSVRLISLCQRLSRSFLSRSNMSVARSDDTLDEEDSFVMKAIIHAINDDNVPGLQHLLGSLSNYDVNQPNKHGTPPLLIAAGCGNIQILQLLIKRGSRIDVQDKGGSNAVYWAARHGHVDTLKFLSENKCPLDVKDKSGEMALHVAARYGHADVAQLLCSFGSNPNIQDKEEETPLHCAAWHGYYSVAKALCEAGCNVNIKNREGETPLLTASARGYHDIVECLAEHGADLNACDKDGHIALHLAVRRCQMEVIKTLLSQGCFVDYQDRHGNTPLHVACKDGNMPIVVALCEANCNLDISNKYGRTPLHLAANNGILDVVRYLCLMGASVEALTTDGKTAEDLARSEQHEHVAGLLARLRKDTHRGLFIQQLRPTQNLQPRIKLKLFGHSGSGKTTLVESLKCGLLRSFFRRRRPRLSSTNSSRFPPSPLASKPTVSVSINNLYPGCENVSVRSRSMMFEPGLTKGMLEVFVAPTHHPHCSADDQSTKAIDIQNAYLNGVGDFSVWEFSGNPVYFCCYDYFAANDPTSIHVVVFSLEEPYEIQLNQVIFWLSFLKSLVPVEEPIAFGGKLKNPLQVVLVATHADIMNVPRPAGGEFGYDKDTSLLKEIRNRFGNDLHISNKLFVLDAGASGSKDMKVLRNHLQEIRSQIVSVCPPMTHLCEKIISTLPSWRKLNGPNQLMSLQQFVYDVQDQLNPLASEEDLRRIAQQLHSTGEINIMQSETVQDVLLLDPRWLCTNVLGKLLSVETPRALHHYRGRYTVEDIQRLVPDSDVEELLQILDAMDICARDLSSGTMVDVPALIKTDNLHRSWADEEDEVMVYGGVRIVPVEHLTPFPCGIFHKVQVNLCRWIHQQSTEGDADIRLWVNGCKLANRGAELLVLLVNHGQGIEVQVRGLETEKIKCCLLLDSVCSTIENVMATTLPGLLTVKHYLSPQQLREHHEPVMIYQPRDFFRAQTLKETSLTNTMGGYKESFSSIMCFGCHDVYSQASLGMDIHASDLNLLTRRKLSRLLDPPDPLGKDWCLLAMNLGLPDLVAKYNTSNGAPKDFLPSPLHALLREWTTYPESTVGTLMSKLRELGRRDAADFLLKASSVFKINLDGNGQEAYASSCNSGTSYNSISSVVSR
# UniProt P07948, sequence (whole entry, looked up): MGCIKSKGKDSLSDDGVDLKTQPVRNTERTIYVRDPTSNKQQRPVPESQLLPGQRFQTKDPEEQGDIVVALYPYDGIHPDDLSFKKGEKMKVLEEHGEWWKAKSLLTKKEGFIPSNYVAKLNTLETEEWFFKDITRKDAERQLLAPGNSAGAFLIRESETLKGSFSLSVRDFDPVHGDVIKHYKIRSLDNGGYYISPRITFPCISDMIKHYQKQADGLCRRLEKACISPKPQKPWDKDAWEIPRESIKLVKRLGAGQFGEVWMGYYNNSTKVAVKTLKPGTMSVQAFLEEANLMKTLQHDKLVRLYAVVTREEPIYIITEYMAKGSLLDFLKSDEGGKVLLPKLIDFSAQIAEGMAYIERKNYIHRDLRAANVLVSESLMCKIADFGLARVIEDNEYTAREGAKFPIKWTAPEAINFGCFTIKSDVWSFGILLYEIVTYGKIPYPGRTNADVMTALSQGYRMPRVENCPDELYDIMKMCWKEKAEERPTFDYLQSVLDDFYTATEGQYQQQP
# UniProt Q13976, sequence (whole entry, looked up): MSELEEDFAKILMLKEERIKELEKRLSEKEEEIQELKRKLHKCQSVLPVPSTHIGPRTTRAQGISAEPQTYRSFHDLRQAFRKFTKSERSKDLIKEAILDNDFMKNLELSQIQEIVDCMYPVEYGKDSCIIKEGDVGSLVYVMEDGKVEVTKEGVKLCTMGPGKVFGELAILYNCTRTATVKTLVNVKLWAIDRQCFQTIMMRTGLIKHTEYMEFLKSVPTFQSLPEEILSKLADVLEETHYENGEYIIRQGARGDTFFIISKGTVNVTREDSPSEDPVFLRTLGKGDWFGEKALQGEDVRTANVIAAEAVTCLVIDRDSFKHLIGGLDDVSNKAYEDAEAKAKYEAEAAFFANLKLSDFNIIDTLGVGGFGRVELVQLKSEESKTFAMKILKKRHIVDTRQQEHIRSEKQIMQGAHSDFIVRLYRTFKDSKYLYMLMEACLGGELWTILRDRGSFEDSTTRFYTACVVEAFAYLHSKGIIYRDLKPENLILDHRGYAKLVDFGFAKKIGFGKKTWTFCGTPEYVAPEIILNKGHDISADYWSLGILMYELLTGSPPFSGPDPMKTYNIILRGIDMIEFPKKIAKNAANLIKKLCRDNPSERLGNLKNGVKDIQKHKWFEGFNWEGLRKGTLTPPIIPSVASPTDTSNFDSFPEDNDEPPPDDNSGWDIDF
# UniProt P05771, sequence (whole entry, looked up): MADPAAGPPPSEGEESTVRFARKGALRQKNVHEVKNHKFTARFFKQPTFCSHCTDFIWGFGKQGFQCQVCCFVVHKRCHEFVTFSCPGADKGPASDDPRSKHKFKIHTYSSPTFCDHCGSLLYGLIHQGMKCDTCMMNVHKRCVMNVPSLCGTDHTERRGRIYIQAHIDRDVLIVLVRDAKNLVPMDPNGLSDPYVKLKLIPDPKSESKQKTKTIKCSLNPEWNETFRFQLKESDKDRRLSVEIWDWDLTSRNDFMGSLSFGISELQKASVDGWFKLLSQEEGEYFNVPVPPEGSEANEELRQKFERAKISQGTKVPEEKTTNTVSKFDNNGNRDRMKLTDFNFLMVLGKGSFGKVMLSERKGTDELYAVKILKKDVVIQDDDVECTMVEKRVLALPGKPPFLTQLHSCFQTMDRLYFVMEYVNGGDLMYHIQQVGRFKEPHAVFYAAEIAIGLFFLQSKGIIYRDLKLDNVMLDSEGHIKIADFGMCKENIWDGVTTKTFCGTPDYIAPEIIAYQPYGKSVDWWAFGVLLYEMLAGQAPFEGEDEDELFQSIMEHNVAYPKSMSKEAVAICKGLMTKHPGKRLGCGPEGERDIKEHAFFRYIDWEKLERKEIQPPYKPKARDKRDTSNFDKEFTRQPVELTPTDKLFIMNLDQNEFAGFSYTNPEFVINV
# UniProt P51955, sequence (whole entry, looked up): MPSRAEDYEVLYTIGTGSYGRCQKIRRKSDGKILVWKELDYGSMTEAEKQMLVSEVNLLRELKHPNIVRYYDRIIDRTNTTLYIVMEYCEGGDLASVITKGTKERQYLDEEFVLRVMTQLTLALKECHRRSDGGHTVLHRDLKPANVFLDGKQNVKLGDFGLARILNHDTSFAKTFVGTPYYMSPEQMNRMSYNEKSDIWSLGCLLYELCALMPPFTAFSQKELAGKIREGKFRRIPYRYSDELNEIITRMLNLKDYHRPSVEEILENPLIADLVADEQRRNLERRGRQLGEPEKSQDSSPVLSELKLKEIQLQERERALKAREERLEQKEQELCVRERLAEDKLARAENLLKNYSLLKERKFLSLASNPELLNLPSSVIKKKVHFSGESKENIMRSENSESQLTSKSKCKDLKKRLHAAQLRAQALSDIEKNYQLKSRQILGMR
# UniProt P11802, sequence (whole entry, looked up): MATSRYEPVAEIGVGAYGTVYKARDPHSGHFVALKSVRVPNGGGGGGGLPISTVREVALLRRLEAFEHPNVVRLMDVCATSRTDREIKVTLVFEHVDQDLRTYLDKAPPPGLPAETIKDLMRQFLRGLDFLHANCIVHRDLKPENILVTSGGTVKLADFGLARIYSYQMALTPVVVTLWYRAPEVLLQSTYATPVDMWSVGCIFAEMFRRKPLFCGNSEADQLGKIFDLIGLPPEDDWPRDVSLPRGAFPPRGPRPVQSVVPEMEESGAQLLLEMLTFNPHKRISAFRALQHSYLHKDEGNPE
# UniProt Q00535, sequence (whole entry, looked up): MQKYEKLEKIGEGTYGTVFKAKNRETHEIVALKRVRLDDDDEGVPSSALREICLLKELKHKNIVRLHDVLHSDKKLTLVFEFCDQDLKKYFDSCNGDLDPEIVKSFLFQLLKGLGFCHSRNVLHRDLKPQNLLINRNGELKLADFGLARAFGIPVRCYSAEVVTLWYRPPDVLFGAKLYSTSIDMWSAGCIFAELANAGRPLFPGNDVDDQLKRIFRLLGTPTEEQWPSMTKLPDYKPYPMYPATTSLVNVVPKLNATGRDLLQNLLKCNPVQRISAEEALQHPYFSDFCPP

# Sample 1
# Target: Microphthalmia-associated transcription factor, full length (MITF, Homo sapiens, UniProt O75030-10, residues 1-413)
# Technique: protein-binding microarray
# Molecule type: double-stranded DNA, one strand shown
# Matrix: in vitro
# Concentration: not given
# Notes: k-mer, scored over probes, only values ≥0.25
# Reading: higher = stronger binding
# Target sequence (chain): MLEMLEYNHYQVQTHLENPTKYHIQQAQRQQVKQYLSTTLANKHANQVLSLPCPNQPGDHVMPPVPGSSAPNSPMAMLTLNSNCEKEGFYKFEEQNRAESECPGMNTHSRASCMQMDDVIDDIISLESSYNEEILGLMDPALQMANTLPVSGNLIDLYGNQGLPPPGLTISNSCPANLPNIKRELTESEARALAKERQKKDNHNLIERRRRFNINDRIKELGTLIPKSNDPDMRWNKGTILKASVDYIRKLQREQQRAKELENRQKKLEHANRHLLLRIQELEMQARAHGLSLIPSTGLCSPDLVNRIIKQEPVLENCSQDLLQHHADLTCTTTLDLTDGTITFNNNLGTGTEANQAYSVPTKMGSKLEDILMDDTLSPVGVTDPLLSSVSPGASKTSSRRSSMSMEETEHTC
Sequence,E-score
AAGCACG,0.26
CACCCCA,0.315
CCACGCG,0.42
ATGTCAC,0.365
GTCATGA,0.378
CAGATGA,0.309
CAACATG,0.271
CACGTGC,0.491

# Sample 2
# Target: CCNE1, cyclin fold, Cln2 fusion (human)
# Technique: yeast growth competition, sequencing
# Matrix: yeast
# Notes: strong parent motif
# Baseline: not given
# Reading: higher = stronger binding
# Parent: GMNC docking peptide (human); KNAKRNLSSEFAN
Substitution,normalised enrichment score
KNAKRNVSSEFAN [L7V],0.291
KNAKRNLSDEFAN [S9D],1.67
KNAKRNLWSEFAN [S8W],0.917
KNAKRCLSSEFAN [N6C],0.224
KNAKRKLSSEFAN [N6K],0.162
KNCKRNLSSEFAN [A3C],0.856
KNAKRNLSSEFVN [A12V],0.703
KNAKRNNSSEFAN [L7N],0.0985

# Sample 3
# Compound: O=C1NC(=O)c2c1c1c3ccccc3[nH]c1n1cncc21
# Read-out: enzyme activity
# Mode: inhibitor
# Concentration: 0.5 µM
# Baseline: control
target,remaining activity
"CAMKK2 (Homo sapiens, UniProt Q96RR4)",77.2%
"STK10 (Homo sapiens, UniProt O94804)",69%
"STK39 (Homo sapiens, UniProt Q9UEW8)",104%
"Protein kinase C beta type, isoform beta-I (PRKCB, Homo sapiens, UniProt P05771)",95%
"DAPK1 (Homo sapiens, UniProt P53355)",26.6%
"DAPK2 (Homo sapiens, UniProt Q9UIK4)",43.8%
"Cyclin-dependent kinase 5, with p25 (CDK5, Homo sapiens, UniProt Q00535)",89.4%
"cGMP-dependent protein kinase 1, isoform beta (PRKG1, Homo sapiens, UniProt Q13976)",85.9%
"PRKACA (Homo sapiens, UniProt P17612)",98.2%
"TGFBR1 (Homo sapiens, UniProt P36897)",96.3%
"Cyclin-dependent kinase 4, with cyclin D1 (CDK4, Homo sapiens, UniProt P11802)",86%
"TGFBR2 (Homo sapiens, UniProt P37173)",95.8%
"Tyrosine-protein kinase Lyn, isoform B (LYN, Homo sapiens, UniProt P07948)",96.2%
"IKBKB (Homo sapiens, UniProt O14920)",95.9%
"CAMK2D (Homo sapiens, UniProt Q13557)",36.7%
"GRK3 (Homo sapiens, UniProt P35626)",109%
"PRKCA (Homo sapiens, UniProt P17252)",66.5%
"IKBKE (Homo sapiens, UniProt Q14164)",103%
"MAP3K3 (Homo sapiens, UniProt Q99759)",86.9%
"NEK2 (Homo sapiens, UniProt P51955)",87.5%
"STK11 (Homo sapiens, UniProt Q15831)",45.2%
"MAPK9 (Homo sapiens, UniProt P45984)",65.3%
"OXSR1 (Homo sapiens, UniProt O95747)",97.2%

# Sample 4
# Target: Eukaryotic initiation factor 4A-I (EIF4A1, Homo sapiens, UniProt P60842, residues 1-406, full length assumed)
# UniProt P60842, sequence (whole entry, looked up): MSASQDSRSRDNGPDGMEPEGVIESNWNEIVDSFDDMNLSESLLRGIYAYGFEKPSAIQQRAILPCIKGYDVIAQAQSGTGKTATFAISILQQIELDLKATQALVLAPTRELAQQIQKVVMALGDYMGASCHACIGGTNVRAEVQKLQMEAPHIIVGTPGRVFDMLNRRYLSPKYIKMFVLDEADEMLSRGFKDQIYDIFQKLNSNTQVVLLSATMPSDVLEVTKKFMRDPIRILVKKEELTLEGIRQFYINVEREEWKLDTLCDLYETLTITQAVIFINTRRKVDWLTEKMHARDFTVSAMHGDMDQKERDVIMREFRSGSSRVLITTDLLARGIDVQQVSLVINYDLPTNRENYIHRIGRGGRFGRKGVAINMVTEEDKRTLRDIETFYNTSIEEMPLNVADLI
# Technique: RNA Bind-n-Seq
# Molecule type: RNA
# Matrix: in vitro
# Concentration: 90 pmol
# Notes: 4-mer, random 30-nt RNA, single round
# Together with: 3 µM DMDA-PatA, 2 mM ADP, 2 mM phosphate
# Baseline: input library
# Reading: higher = stronger binding
Sequence,4-mer enrichment
GUGU,2.09 fold
UAAC,0.691 fold
AGCA,0.875 fold
CUCU,0.546 fold
UAUA,1.01 fold
UAUU,1.02 fold
UAGG,1.08 fold
CGCG,1.35 fold

# Sample 5
# Cell line: HaCaT
# Concentration: 100 µM
# Time: 18 h
SMILES,viability [%]
COc1c(N2CCNC(C)C2)c(F)cc2c(=O)c(C(=O)O)cn(C3CC3)c12 (centres unmarked),117
CN1CCC(=C2c3ccccc3CCc3cccnc32)CC1,114
Cc1[nH]c(=O)c(C#N)cc1-c1ccncc1,107

# Sample 6
# Target: Translocator protein (Tspo, Rattus norvegicus, UniProt P16257)
# UniProt P16257, sequence (whole entry, looked up): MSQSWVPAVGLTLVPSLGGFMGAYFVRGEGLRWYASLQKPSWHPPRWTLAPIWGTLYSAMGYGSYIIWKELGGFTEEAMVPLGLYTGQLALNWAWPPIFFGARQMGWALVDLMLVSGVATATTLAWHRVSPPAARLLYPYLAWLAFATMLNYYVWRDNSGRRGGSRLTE
# Read-out: radioligand binding
# Technique: radioligand displacement
# Concentration: 10 µM
Compound,inhibition [%]
CN1CCN(C(=O)C(C)(C)c2ccc(C(=O)Nc3cn4cc(-c5ccncc5)ccc4n3)cc2)CC1,-18.7
COCCc1ccc(-c2c(C)nc3c(N4CCOCC4)ccnn23)cn1,2.18
CC1CCN(c2ccnc(NCc3cn(C)cn3)n2)CC1,17.9

# Excerpt of the above (sample 1):
Sequence,E-score
ATGTCAC,0.365
AAGCACG,0.26
CACGTGC,0.491
